Published values from different studies.
Parts stem from different laboratories: compare values within a part only.

Sample 1
Target: Prothrombin, mature alpha-thrombin (F2, Homo sapiens, UniProt P00734)
Technique: aptamer microarray, sandwich
Molecule type: DNA with 2'F-ANA
Sample: in vitro
Tested at: 200 nM
Notes: whole 15-mer aptamer, many near background
Added: Cy3 exosite-II aptamer, 400 nM
Reading: higher = stronger binding
Strand: GGTTGGTGTGGTTGG
| Modification | mean fluorescence intensity [a.u.] |
| --- | --- |
| 2'F-ANA at 1 2 4 10 11 15 | 47.6 |
| 2'F-ANA at 1 3 4 5 6 8 10 11 12 | 47.8 |
| 2'F-ANA at 4 7 8 10 13 14 | 60.9 |
| 2'F-ANA at 4 5 10 14 15 | 58.9 |
| 2'F-ANA at 1 2 3 5 6 9 10 | 46.2 |
| 2'F-ANA at 1 3 4 8 10 12 14 15 | 54.3 |
| 2'F-ANA at 5 6 8 9 11 13 14 15 | 56.8 |
| 2'F-ANA at 1 4 5 8 9 11 14 15 | 50.1 |
| 2'F-ANA at 1 3 4 8 9 10 12 13 15 | 115 |
| 2'F-ANA at 2 4 9 10 13 14 | 64.9 |
| 2'F-ANA at 1 4 6 7 9 10 12 14 15 | 46.4 |
| 2'F-ANA at 2 3 7 9 10 15 | 409 |
| 2'F-ANA at 1 2 4 7 14 15 | 54.4 |
| 2'F-ANA at 3 7 13 14 | 785 |
| 2'F-ANA at 1 2 3 7 8 11 13 14 15 | 79 |
| 2'F-ANA at 3 4 7 10 11 13 14 15 | 180 |
| 2'F-ANA at 2 3 4 5 6 11 14 | 52.7 |
| 2'F-ANA at 2 3 6 8 10 12 13 15 | 357 |

Sample 2
Target: RNA binding protein fox-1 homolog 2, RRM domain, GST-SBP tag (RBFOX2, Homo sapiens, UniProt O43251-10, residues 100-194)
Technique: RNA Bind-n-Seq
Molecule type: RNA
Sample: in vitro
Tested at: 365 nM
Notes: natural RNA segment, single round, ends assumed
Baseline: no-protein control
Reading: higher = stronger binding
All sequences stand within: GGGAGUUCUACAGUCCGACGAUC … UGGAAUUCUCGGGUGCCAA
Residues (chain): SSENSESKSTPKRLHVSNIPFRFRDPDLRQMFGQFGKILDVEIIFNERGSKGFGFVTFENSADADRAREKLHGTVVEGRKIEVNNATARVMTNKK
| Strand | RBNS enrichment (R) |
| --- | --- |
| GAAGUUAGGAAAUUCAGUUUGUCUCUUACUUCUUGAAAAUGGCAGGGAGCAGCUGCAGCCCCUGACUUGUCUGGGGGGAUGUUUAGGAUAUGACAGAGGUUAGAGUCAGU | 0.838 |
| CGUGGAUAGCCCCUUGGCUGCUCUCCUGCAGAGAGACAUCGGACAGACCUUAAUUCUUACUCACUGCUGUGGCUGGAGAGUAUAAGGAAUGCUUUUUCUUUUUUUCUUUC | 0.279 |
| GGCAUUUCAGCGUCAAGUGCACUUAGCGGGGUACCCAGCCCCCCCAGUCCCAACACCUGUCCUGUGUCUCAGGGUGGUCCUAGCUUCUCCUUAGGCAGCCAGGAAUUGGA | 0.275 |
| UUAUUUGCACAGGGAGAAUUGAAACUGAGUAUAAUCAAUAAGCUAGAUACGAAAUCAGUUUCUCAAACUGAGCUUCAGAAAGGGGCAUUUUGUACUCUUGUUUUUGCAUA | 3.62 |
| AACGGUCACCCUGUAAAGUGCUCAGAGUCGGAGUCCAGCACCUCCCCCAGUGGUGGCAGCUGUUCCAUGCCUGCUCUGUUUCAGCUCUUCUGAGACAGGGAGGAGGAGCC | 0.263 |
| AGCUACUGAUUUGAAUUUGUUUUUAUCUUGUCCUAAAGUCUUUGUUCUUGAAAUGCAAGGUAUUUGGGGGUUAUUUAUUAUGAAAGCAACAUACUCUUAAUGUUGAUUUU | 0.448 |
| UUGAUACCCUUAAAAAUUAUUCAUAGAUCUGGCUGCUCUGUACUACUGGAUGGGUGGAAUAGGGAAGCAGAUCACUUUUGCAUACAAAAACUCUUUCAAACCCAAAAUAU | 0.477 |
| UGUUGUUGACACCUGUAUUUAAUGACACCUGCACACCUUUCAAAUAAAAACAUGUUUUUCUUCAAGUCUCUGUGUAUUCAAAUCAAUUUUGUGUGUGUGCCGAUAUUGGA | 0.405 |

Sample 3
Target: Fragile X messenger ribonucleoprotein 1, C-terminal low-complexity region (Fmr1, Mus musculus, UniProt P35922)
Technique: RNA Bind-n-Seq
Molecule type: RNA
Sample: in vitro
Tested at: 200 nM
Notes: whole 134-nt RNA, ends assumed
Added: 150 mM LiCl
Baseline: input library
Reading: higher = stronger binding
Library: 7-deaza-guanosine replaces G
All sequences stand within: GGGAGUUCUACAGUCCGACGAUC … UGGAAUUCUCGGGUGUCAAGG
| Strand | log2 enrichment |
| --- | --- |
| ACCAUGCAGGUGGGCAUCUUUGGGAAGUGGGGCAAGGGGGGGAUAGGGAGGGGGGUAACACUUUGGGAACAGGUGAUCCCAGGUCGUUUC | 1.35 |
| UCCUAGUAUUCUGGCCGUUCAGAGAUCUGCAAUCCUCAAGAAGCAGCAACAGCAGCAGCAGCAACAACAACAUCAAGCCUCAUCUAAUAG | 1.38 |
| CACAGACAACACGCACCCACACAGACACAGAGGGAAGGGGUUGGGAUGGGGACAGGGUGCACAGCAGGGCGGCGUAGGACCCCAGCCCCU | 0.205 |
| GCAGGAAGUAAAAACCAAUGGAAAUGCUUCGGAUAGUGGCAGGGGUGGGGGUUGCUAAGGAAAGGGUGGGAUGGGAGUGGGUAAAGAGUU | 1.61 |
| AGUCCUGUGCUACACAUCGUAUGUACCGAAUCGGGUGGGUUUUUGGGUUUUUUUGGGAAAGUAUUAUGUUACGCCGUUCGGAUCUGCACU | -1.15 |
| UCCUGUGCUACACAUCGUAUGUACCGAAUCGGGGAAAGGGGUUUUUUUGGGGAAAGGGGAAAGUAUUAUGUUACGCCGUUCGGAUCUGCA | -0.566 |
| CCUGUGCUACACAUCGUAUGUACCGAAUCGGGGCCCCCCGGGGCCCCCCGGCCCCCCGGGAAAGUAUUAUGUUACGCCGUUCGGAUCUGC | -2.38 |
| ACCAUGCAGGUGGGCAUCUUUGGGAAGUGGGGCAAGGGGGGGAUAGGGAGGGGGGUAACACUUUGGGAACAGGUGGUCCCAGGCCGUUUC | 1.25 |

Sample 4
Target: RING finger protein unkempt homolog, zinc fingers 1-6, GST-SBP tag (UNK, Homo sapiens, UniProt Q9C0B0, residues 30-357)
Technique: RNA Bind-n-Seq
Molecule type: RNA
Sample: in vitro
Tested at: not given
Notes: RNA with constant flanks, ends assumed
Baseline: input RNA pool
Reading: higher = stronger binding
All sequences stand within: GGGAGUUCUACAGUCCGACGAUC … CAACAGAGGAUUGAGCAUCA
Target sequence (chain): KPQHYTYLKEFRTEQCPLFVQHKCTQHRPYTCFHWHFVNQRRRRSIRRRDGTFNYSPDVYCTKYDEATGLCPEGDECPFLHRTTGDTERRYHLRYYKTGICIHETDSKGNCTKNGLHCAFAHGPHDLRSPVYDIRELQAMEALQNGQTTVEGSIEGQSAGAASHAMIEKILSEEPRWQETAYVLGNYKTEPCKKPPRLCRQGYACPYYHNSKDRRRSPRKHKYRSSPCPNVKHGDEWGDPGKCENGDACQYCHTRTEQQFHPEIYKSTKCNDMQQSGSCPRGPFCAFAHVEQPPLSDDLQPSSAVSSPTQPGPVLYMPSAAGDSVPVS
| Strand | bound/input enrichment |
| --- | --- |
| AUUUUGCUGUGUGGUGUGGCUGCCUUUGGUAGGGAGGUUUCCAUGGAUGUAGCCAGCGUGCCGCUAUUGUGUGUGGGGCAGCAUCCAGCCUGGAGUUGCCAGUGUCUCUAGCAAGCAAUA | 0.243 ratio |
| UGUAGUCAGUGUGGAAGAGCCUUCAGCCAGAAGCAAUACCUCAUUAAACACCAGAAUAUCCACCGUGGGAAGAAACCUUUUAAGUGUAAUGAGUGUGGUAAGGCUUUUAGCCAGAAAGAA | 0.243 ratio |
| UCUACGUCUUCAUCUAUGCAGCCAGGCCCUGUGUCAAAUCAGUCACUUUUAUCAGAAUCUGCCGCACCUUCCCAAGUGGACAGUACAUCUGUGGACAAAGCAGUAUCUGAGACAGAAGAC | 0.298 ratio |
| UUGGGCUUCUGGAGGGCCUCUCUCGCCUGCCCGACGUCCUGCAAAUGCAGUUCCGCCCGGAUUUGGUGUACUGAGCCUUCUCCAGGCAUCGUGGCAUUCCCGAGGUUGGAACCUAACAGC | 0.0437 ratio |
| GGAUGGCACAGCUUCUGGAUCUAUCUGUUGAUGAGUCCGAAGCCUUUCUCUCAAAUCCCGCCGUUAACAAGACCAUCUUUGCUAAAGUAGACAGAUUAGCAGGAAUUAUCAACUUCCAGA | 0.267 ratio |
| GCACAUGGUUUGGGACUUGCACGUUCUGCCAUGGAGGAGUCUUCAGUGACAGUUGGCACAACCGACGUUUCUUAUCUGCCCAGUUCAUCGGAAUACAGCCUUGGCCGAUGUAAACACACC | 0.55 ratio |
| CUGACCCAUAAUAACGGAAAGUUUAACAAUGACUCACAUUCUCCUAAAGUUUCCAGCCAGAACCGGACACGCUCAUUUGGUCAUUUUCCCGGUCCAGAGUUCUUGGAUGUAGAGAAAACU | 0.347 ratio |
| GUUAUCAUUUGUGUGGAAGGAAAAGAAUUUCCUUGCCAUAGAGCUGUGCUCUCAGCCUGCCGCAGCUACUUCAGAGCUAUGUUUUGUAAUGACCACAGGGAAAGCCGAGAAAUGUUGGUU | 0.238 ratio |
